# Experimental data of several laboratories.
# Substitutions count along the parent as printed. Numbers after ± are the reported error.
# RIGI: RIGI 2-925 (Homo sapiens, UniProt O95786)
# Sequence of UniProt O95786 (whole entry, looked up): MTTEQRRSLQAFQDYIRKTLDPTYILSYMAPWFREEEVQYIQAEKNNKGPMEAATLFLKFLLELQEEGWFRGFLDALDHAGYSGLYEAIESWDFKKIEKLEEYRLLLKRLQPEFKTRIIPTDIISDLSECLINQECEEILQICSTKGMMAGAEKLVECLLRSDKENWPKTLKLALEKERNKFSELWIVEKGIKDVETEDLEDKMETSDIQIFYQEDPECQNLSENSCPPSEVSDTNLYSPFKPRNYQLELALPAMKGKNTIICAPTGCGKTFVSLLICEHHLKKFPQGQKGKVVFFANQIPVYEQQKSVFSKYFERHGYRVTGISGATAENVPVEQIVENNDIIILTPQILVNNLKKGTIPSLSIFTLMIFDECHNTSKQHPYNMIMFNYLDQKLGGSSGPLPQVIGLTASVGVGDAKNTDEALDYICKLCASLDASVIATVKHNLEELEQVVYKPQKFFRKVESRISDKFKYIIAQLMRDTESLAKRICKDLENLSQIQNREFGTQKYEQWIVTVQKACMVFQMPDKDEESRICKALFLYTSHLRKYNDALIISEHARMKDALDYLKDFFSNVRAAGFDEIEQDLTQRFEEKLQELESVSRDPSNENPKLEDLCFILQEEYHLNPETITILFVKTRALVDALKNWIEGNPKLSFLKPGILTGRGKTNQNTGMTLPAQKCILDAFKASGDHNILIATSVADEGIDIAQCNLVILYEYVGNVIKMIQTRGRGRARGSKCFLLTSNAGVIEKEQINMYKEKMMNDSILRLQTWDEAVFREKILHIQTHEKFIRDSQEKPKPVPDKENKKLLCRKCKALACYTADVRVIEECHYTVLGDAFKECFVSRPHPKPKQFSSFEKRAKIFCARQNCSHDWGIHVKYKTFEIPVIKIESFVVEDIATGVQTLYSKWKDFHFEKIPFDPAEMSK
# TFAM: TFAM 43-246 (Homo sapiens, UniProt Q00059)
# Sequence of UniProt Q00059 (whole entry, unmodified, looked up): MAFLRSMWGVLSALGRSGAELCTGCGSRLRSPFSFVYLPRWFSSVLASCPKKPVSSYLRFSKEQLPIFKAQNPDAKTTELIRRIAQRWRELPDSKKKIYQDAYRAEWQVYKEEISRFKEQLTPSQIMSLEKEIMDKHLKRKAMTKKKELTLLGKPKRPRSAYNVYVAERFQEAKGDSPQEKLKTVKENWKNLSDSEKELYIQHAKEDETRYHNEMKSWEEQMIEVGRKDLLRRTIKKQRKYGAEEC
# T1: NAB3/NRD1 NAB3 191-565; NRD1 1-548 (Saccharomyces cerevisiae); chain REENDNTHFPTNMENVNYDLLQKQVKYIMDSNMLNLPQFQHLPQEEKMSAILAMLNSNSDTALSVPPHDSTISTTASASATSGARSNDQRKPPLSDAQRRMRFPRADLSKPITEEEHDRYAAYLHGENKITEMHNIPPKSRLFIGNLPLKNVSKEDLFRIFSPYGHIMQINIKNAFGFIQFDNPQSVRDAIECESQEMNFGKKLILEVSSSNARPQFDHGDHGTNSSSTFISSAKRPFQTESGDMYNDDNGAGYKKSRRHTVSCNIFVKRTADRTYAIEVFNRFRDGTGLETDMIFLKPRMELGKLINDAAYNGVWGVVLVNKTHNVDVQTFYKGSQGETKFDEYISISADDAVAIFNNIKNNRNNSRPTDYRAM; chain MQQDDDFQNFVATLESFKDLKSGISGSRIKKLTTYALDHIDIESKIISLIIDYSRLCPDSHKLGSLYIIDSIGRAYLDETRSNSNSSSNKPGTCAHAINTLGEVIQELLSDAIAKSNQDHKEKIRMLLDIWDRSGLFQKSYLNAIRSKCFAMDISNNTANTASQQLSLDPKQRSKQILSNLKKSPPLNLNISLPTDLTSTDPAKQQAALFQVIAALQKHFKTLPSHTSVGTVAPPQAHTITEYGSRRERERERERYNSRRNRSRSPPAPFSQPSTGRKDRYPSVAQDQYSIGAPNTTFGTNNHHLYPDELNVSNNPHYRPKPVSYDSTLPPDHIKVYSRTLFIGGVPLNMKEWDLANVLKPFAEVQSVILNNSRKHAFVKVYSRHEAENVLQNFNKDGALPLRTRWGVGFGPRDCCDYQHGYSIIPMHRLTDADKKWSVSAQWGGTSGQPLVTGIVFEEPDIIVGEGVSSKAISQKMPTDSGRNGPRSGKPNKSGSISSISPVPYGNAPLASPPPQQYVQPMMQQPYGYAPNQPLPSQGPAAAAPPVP
# P1: METTL9 full-length, 1-318 (Homo sapiens); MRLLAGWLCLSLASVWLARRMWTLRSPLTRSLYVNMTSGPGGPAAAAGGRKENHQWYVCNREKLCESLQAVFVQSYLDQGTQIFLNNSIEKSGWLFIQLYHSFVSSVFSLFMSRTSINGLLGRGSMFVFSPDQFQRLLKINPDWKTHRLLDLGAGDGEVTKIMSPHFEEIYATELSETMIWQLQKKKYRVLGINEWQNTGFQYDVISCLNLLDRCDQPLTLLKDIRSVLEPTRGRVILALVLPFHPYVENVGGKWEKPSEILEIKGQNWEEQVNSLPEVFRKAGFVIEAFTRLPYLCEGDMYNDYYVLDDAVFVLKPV; partner HTHESIWHG
# Sequence of UniProt Q9ES57 (whole entry, looked up): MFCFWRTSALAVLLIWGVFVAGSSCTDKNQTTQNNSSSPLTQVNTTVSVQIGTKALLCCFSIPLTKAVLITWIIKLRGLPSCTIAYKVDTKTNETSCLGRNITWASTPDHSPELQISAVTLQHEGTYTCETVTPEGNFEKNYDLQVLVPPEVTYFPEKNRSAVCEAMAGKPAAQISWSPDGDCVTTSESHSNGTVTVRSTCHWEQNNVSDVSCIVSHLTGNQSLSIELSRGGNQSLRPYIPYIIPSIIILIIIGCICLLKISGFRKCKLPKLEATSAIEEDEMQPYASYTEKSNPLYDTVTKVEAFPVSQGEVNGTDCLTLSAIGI
# Sequence of UniProt Q57977 (whole entry, looked up): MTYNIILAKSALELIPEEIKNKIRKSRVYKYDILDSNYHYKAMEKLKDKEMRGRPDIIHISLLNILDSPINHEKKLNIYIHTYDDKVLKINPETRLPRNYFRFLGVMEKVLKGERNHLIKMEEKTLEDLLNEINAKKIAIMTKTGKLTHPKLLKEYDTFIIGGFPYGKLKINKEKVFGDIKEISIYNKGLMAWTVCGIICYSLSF
# Sequence of UniProt P50225 (whole entry, looked up): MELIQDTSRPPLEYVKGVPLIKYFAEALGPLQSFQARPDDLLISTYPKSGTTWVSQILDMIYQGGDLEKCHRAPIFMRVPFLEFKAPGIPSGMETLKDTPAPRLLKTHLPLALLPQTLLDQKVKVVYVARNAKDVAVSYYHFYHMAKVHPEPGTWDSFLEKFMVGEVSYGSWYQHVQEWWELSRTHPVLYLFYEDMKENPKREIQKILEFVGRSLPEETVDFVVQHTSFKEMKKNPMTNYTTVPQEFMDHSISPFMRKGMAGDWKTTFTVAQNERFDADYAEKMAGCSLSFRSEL
# Sequence of UniProt P35222 (whole entry, looked up): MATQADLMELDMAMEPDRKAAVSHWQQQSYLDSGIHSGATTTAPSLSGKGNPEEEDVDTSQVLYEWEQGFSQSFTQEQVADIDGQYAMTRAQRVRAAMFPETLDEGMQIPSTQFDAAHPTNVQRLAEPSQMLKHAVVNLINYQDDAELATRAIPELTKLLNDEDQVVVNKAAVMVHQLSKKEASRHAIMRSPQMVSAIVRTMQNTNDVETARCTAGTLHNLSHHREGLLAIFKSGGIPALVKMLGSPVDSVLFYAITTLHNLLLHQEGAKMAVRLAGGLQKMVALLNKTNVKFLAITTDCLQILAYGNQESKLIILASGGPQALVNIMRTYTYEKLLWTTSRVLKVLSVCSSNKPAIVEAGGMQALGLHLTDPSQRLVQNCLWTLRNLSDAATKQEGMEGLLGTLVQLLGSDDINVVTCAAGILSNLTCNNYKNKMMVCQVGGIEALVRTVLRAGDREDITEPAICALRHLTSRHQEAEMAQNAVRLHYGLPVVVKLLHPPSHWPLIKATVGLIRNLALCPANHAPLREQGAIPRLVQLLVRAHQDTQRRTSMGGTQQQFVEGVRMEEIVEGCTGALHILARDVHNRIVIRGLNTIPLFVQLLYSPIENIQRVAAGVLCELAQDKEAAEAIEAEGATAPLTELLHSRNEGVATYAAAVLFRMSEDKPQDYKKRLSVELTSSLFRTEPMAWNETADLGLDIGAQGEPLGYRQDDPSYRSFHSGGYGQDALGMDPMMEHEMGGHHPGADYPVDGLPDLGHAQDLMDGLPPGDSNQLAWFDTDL
Molecule,tested on,assay,system,setting,measurement,result
P1 T115A,SLC39A7 residues 66-74,ITC,,together with: SAH 2 mM,Kd,34300 nM
GACGATAGCGGTGACGGCACAGACGTTTATTACCATTATGCCTATGTAACGTATGCCGCTTCCGTCCGTCGCTC (ssDNA),"Cd200r1 26-238 (Mus musculus, UniProt Q9ES57)",nitrocellulose filter binding,single-stranded DNA,"estimated, weak, together with: Mg2+ 1 mM",Kd,> 1000 nM
"SULT1A1 (Homo sapiens, UniProt P50225)",O=C(O[C@@H]1Cc2c(O)cc(O)cc2O[C@@H]1c1cc(O)c(O)c(O)c1)c1cc(O)c(O)c(O)c1,steady-state kinetics,,"pH 7.4, not purified, together with: EGCG 0–0.4 µM",Vmax/Km,94000 µL/min/mg
"GGACGUACGUUUCGACGUACGUCC (structured RNA; 5'-triphosphate, hairpin, 10 bp)",RIGI,MST,folded RNA,together with: ADP-AlFx,Kd,3.5 ± 2.4 nM
AGCAGGAGCAGGAACAGGATGAACA (dsDNA; 25 bp duplex),TFAM,FRET,"double-stranded DNA, one strand shown","apparent, cooperative Hill model",Kd,7.4 ± 0.6 nM
"GGACGUACGUUUCGACGUACGUCC (structured RNA; 5'-OH, hairpin, 10 bp)",RIGI,MST,folded RNA,no nucleotide,Kd,5.5 ± 2.4 nM
ACACCGCTGCTAACCCCATACCCCG (dsDNA; 25 bp duplex),TFAM,FRET,"double-stranded DNA, one strand shown","apparent, cooperative Hill model",Kd,7.4 ± 0.9 nM
"RNA 1 GCAUGCGACCUCUGUUUGA / RNA 2 UCAAACAGAGGUCGCAUGC (dsRNA; 5'-OH, duplex, 19 bp)",RIGI,MST,double-stranded RNA,no nucleotide,Kd,210 ± 76 nM
P1 C297A,SLC39A7 residues 66-74,ITC,,together with: SAH 2 mM,Kd,31200 nM
CCCCGUAGAAAAUCUUAGUAAUCCUUCUUACAUUG (ssRNA),"T1, NAB3/NRD1 NAB3 191-565; NRD1 1-548 (Saccharomyces cerevisiae)",fluorescence anisotropy,RNA,,Kd,2.4 ± 0.3 nM
CACACACACACA (ssDNA),"Tardbp 101-265 (Mus musculus, UniProt Q921F2)",filter binding,single-stranded DNA,,Kd,382 nM
UUCAAC (ssRNA),"nep1 1-205 (Methanocaldococcus jannaschii, UniProt Q57977)",fluorescence quenching,RNA,,Kd,12300 ± 1900 nM
"GGGACGCGUGGUACCAGGCCGAUCUAUGGACGCUAUAGGCACACCGGAUACUUUAACGAUUGGCUAAGCUUCCGCGGGGAUC (structured RNA; stem-loops, bulges, tri-bridged)","CTNNB1 138-693 (Homo sapiens, UniProt P35222)",SPR,folded RNA,,Kd,4.56 nM
GTGTTAGTTGGGGGGTGACTGTTAA (dsDNA; 25 bp duplex),"TFAM 43-221 del222-246 (Homo sapiens, UniProt Q00059)",FRET,"double-stranded DNA, one strand shown","apparent, ligand depletion model",Kd,9.8 ± 1.3 nM
